# Experimental data gathered from unrelated publications.
# Compare with care: the assays were run in different laboratories.
# KRAS: GTPase KRas (KRAS, Homo sapiens, UniProt P01116)
# KRAS G12D: GTPase KRas (KRAS, Homo sapiens, UniProt P01116, G12D)
Structure (SMILES),target,assay,test system,conditions,measurement,result
Oc1ccc(C(=NNc2ccccc2)c2ccc(O)cc2)cc1,KRAS,"enzyme activity, inhibitor",,,IC50,1830 µM
C=CC(=O)N1C[C@H](C)N(c2nc(OC[C@@]34CCCN3C[C@H](F)C4)nc3c(F)c(-c4ccc(F)c5sc(N)c(C#N)c45)c(C(F)(F)F)cc23)C[C@H]1C,"GTPase KRas, GppNHp; with RAF1 RBD (KRAS, Homo sapiens, UniProt P01116, G12C)","KRAS G12C-RAF1 RBD interaction, inhibitor, HTRF",,GppNHp-bound,IC50,< 0.1 µM
CC[C@H](C)[C@H](N)C(=O)Nc1ccc2nc(Cc3c[nH]c4ccccc34)[nH]c2c1,KRAS G12D,"enzyme activity, inhibitor",,,IC50,308 µM
O=C(NCc1c(F)cccc1Cl)c1csc(-c2n[nH]c3ccccc23)c1,"GTPase KRas (KRAS, Homo sapiens, UniProt P01116, G12V)","binding, MST",,,Kd,0.0184 µM
Cc1ncsc1-c1ccc(C2(NC(=O)C3CC(O)CN3C(=O)C(NC(=O)c3ccc(COc4c(-c5c(C)c(F)cc6[nH]ncc56)c(C5CC5)cc5c(N6CC7CC6CN7)nc(OC6CCOCC6)nc45)cc3)C(C)C)CC2)cc1 (stereo not drawn),KRAS G12D,"degrader, In-Cell ELISA",AsPC-1,24 h,DC50,0.181 µM
CC(C)(C)OC(=O)NCCNC(=O)c1ccc2[nH]c(/C(=N/Nc3ccc(F)cc3)c3ccc(O)cc3)nc2c1,KRAS,"enzyme activity, inhibitor",,,IC50,1970 µM
COCCNc1nc(-c2nccn2C)nc2sc(-c3cccc(OC)c3Cl)c(-c3ccccc3)c12,KRAS,"GTP binding, inhibitor, cell-free GTP competition",,with: fluorescent GTP 100 nmol/L,IC50,2.5 µM
Cc1ncsc1-c1ccc(C(CO)NC(=O)C2CC(O)CN2C(=O)C(NC(=O)c2ccc(COc3c(-c4c(C)c(F)cc5[nH]ncc45)c(C4CC4)cc4c(N5CC6CC5CN6)nc(OC5CCOCC5)nc34)cc2)C(C)C)cc1 (stereo not drawn),KRAS G12D,"degrader, In-Cell ELISA",AsPC-1,24 h,DC50,0.106 µM
Nc1nc2c(-c3c(C(F)(F)F)cc4c(N5CCNCC5)nc(OCC56CCCN5CCC6)nc4c3F)ccc(F)c2s1,"GTPase KRas, GppNHp-bound (KRAS, Homo sapiens, UniProt P01116, G12D)",SPR,,GppNHp-bound KRAS G12D,Kd,0.52 µM

# Excerpt of the above:
Structure (SMILES),target,assay,test system,conditions,measurement,result
COCCNc1nc(-c2nccn2C)nc2sc(-c3cccc(OC)c3Cl)c(-c3ccccc3)c12,KRAS,"GTP binding, inhibitor, cell-free GTP competition",,with: fluorescent GTP 100 nmol/L,IC50,2.5 µM
